{"data": "Measurements from different studies", "note": "A part holds a random share of what one study measured. Values joined by “and” are separate records of one study, mostly repeats; a detail may differ. Substitutions count along the parent as printed.", "sequence of UniProt Q59H18 (whole entry, looked up)": "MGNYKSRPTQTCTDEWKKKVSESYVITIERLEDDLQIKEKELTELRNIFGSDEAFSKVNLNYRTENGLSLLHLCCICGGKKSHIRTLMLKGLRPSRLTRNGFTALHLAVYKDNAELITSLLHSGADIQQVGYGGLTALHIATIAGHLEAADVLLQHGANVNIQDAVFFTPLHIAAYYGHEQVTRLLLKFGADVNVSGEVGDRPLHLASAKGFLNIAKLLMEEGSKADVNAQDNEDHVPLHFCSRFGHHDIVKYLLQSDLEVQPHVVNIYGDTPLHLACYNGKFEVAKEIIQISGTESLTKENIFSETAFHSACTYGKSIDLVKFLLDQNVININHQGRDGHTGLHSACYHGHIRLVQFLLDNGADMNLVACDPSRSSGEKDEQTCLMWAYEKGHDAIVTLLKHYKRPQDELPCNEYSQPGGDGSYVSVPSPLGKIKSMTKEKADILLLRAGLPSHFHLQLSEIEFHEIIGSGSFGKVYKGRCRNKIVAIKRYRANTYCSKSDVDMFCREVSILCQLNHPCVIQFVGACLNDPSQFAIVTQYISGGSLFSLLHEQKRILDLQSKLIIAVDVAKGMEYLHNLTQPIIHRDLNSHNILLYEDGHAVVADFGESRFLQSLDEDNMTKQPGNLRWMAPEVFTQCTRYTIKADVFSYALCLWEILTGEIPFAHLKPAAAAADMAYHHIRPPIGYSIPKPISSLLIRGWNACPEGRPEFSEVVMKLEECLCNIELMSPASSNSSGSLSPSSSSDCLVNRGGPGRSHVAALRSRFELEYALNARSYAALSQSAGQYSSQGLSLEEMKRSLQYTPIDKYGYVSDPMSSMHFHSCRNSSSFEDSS", "sequence of UniProt Q9BYP7 (whole entry, looked up)": "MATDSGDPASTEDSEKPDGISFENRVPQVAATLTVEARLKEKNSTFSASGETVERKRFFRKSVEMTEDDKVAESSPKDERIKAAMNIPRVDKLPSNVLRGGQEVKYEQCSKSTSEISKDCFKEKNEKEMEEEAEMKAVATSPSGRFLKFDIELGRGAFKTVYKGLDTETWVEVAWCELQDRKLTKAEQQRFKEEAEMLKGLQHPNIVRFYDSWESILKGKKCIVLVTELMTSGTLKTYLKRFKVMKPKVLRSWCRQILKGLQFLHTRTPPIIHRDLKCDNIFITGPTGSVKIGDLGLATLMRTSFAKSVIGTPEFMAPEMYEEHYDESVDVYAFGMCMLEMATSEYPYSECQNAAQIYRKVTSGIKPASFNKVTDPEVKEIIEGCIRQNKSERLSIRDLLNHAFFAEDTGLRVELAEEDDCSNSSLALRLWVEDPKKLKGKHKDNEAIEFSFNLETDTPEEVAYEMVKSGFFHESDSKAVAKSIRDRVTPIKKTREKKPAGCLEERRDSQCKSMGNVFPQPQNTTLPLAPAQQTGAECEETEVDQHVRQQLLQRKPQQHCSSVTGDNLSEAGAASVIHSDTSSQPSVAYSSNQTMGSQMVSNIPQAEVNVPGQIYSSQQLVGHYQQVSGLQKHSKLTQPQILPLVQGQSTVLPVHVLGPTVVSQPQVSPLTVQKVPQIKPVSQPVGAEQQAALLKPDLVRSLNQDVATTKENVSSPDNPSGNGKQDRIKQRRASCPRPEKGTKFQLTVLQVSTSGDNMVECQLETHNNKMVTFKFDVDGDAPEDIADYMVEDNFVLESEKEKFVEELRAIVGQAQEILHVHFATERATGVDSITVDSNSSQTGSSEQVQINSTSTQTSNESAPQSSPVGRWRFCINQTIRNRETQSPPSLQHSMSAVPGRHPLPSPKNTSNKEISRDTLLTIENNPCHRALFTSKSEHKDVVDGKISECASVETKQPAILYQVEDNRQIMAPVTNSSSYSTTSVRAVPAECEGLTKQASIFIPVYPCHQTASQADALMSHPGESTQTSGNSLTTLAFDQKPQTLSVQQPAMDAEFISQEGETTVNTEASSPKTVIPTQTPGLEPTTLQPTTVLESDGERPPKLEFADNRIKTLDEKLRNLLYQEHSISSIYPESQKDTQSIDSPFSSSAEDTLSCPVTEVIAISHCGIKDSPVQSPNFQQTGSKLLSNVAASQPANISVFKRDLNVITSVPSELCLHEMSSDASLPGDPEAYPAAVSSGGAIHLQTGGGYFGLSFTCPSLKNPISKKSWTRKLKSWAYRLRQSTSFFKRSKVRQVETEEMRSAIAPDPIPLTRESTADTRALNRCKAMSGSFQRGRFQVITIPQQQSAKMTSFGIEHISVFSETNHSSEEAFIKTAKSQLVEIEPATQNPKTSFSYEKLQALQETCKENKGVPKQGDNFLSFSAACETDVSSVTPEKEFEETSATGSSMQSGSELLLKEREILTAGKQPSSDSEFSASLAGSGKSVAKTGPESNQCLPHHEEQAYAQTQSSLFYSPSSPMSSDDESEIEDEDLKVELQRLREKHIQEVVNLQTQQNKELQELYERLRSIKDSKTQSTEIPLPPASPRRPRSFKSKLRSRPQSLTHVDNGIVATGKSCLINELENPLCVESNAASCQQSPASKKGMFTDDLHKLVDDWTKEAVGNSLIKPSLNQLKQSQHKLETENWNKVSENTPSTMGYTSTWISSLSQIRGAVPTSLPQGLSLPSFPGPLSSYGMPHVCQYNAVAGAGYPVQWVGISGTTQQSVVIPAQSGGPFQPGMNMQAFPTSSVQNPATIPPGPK", "sequence of UniProt P00519 (whole entry, unmodified, looked up)": "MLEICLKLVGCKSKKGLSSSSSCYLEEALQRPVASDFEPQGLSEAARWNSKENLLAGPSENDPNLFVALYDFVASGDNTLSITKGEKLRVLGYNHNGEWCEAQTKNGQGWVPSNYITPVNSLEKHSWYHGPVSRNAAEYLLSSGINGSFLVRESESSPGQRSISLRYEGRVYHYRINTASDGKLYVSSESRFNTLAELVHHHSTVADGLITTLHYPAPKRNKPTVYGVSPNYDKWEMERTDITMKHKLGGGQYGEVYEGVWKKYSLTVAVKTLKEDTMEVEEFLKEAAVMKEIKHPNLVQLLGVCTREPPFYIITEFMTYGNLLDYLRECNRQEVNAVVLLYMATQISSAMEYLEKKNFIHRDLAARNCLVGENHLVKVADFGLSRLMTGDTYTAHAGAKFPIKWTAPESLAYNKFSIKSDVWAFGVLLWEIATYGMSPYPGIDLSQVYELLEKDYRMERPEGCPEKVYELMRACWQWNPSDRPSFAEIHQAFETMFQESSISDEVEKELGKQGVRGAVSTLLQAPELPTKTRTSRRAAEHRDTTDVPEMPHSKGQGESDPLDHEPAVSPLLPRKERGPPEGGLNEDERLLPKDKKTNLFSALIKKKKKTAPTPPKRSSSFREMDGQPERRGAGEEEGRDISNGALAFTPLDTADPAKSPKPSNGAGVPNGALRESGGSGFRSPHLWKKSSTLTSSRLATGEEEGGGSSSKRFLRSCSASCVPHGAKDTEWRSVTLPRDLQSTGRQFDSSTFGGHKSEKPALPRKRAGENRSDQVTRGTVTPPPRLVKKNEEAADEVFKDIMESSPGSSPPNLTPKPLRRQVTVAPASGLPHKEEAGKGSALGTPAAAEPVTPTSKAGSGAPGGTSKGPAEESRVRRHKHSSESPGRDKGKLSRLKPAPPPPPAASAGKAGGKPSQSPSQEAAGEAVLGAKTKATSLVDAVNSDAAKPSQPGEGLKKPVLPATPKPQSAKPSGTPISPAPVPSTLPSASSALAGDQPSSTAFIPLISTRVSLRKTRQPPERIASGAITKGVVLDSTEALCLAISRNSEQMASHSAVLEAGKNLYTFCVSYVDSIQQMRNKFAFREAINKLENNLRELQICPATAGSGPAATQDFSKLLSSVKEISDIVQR", "sequence of UniProt Q16513 (whole entry, looked up)": "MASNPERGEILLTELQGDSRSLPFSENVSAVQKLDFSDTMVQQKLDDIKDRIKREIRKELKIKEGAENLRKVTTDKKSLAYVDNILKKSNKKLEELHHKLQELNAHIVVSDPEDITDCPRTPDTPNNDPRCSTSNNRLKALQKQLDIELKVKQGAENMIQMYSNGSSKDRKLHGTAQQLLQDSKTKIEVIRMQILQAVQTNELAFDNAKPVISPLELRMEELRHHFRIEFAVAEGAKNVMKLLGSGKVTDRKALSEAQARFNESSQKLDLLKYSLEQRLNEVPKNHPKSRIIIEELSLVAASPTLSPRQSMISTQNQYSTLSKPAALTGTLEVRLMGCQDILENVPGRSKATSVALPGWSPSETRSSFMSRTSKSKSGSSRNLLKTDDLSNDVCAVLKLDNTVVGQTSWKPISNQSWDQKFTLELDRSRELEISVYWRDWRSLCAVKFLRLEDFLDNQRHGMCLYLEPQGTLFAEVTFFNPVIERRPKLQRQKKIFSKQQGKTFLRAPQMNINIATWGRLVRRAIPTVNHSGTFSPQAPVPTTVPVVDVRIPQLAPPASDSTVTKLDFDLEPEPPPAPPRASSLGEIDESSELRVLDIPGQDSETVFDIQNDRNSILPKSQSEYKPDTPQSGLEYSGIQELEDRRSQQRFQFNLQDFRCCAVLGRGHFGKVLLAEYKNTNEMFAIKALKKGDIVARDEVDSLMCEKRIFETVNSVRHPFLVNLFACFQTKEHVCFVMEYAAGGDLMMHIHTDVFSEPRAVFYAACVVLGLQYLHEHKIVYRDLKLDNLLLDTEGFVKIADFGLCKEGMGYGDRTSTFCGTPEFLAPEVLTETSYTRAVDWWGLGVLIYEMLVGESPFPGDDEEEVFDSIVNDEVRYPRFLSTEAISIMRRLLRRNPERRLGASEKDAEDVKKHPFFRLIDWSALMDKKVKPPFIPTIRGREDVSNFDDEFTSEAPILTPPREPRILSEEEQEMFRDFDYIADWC"}
{"data": "Study 1", "target": "inorganic phosphate, free oxyanion", "method": "microfluidic competitive inhibition", "sample": "in vitro, cell-free expressed", "concentration": "not given", "notes": "derived from inhibition constants, unchanged parent 615000 nM", "reading": "lower = stronger binding", "parent": "PafA, mature enzyme, eGFP fusion (Elizabethkingia meningoseptica, UniProt Q9KJX5); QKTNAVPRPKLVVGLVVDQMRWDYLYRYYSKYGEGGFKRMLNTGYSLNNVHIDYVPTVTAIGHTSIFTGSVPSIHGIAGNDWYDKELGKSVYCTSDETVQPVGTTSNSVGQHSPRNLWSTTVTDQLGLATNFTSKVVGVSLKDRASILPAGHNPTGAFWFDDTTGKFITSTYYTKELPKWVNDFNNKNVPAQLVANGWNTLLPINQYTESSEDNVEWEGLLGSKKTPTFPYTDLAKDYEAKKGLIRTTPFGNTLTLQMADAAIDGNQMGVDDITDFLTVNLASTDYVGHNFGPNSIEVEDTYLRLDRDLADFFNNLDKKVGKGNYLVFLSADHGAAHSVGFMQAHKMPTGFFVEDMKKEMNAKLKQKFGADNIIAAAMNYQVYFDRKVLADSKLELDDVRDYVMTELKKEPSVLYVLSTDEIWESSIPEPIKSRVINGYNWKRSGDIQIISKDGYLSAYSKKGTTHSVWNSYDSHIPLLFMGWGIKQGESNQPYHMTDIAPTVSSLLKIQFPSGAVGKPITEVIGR"}
{"Substitution": "P9G", "phosphate dissociation constant [µM]": 490}
{"Substitution": "W423V", "phosphate dissociation constant [µM]": 665}
{"Substitution": "K85V", "phosphate dissociation constant [µM]": 620}
{"Substitution": "I476V", "phosphate dissociation constant [µM]": 522}
{"Substitution": "W483V", "phosphate dissociation constant [µM]": 598}
{"Substitution": "V16A", "phosphate dissociation constant [µM]": 515}
{"Substitution": "L126V", "phosphate dissociation constant [µM]": 664}
{"Substitution": "L456V", "phosphate dissociation constant [µM]": 791}
{"data": "Study 2", "target": "UDP-N-acetylglucosamine--peptide N-acetylglucosaminyltransferase 110 kDa subunit (OGT, Homo sapiens, UniProt O15294)", "read-out": "binding", "method": "phage display NGS", "form": "peptide", "concentration": "concentration not given", "relative to": "input library", "Construct (O15294 1-1046)": "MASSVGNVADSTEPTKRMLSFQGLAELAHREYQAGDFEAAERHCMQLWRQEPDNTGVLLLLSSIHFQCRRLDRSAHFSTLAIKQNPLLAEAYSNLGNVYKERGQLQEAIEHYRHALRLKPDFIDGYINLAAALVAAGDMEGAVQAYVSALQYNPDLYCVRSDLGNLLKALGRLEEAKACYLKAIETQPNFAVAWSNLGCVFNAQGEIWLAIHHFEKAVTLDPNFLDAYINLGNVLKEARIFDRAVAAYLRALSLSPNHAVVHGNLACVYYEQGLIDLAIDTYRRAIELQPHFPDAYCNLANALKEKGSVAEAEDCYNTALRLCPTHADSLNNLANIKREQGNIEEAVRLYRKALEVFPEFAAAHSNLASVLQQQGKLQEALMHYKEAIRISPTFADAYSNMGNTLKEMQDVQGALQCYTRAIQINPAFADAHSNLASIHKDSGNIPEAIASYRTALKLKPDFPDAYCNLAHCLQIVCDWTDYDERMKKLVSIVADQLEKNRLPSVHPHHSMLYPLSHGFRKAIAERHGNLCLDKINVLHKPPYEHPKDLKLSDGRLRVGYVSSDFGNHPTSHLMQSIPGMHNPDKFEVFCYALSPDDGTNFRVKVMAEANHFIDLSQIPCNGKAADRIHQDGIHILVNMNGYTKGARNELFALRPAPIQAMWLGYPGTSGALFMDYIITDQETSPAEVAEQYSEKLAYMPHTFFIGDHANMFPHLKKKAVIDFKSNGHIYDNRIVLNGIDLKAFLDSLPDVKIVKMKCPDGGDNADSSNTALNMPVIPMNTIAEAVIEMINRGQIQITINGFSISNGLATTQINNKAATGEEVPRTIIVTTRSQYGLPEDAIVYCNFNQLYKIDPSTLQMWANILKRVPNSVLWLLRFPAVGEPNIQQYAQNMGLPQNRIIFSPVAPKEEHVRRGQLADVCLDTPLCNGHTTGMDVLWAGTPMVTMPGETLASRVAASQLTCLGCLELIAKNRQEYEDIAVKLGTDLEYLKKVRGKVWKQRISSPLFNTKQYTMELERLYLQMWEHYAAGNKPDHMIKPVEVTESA"}
{"Sequence": "SLSHHHIQEHGAYQH", "enrichment fold change": 5.84}
{"Sequence": "EAAATFPPMYQLQVV", "enrichment fold change": 14.3}
{"Sequence": "SFPHRVHHEHSYYEH", "enrichment fold change": 8.88}
{"Sequence": "HVMHYHYQHGYTQP", "enrichment fold change": 6.01}
{"Sequence": "TDYMFTQHHWHKVQH", "enrichment fold change": 9.33}
{"Sequence": "DYIYGHSHPHIMNHN", "enrichment fold change": 9.58}
{"Sequence": "HDQRHHQRETKGEVH", "enrichment fold change": 4.38}
{"Sequence": "HSTPYHYSHVHEPYF", "enrichment fold change": 4.06}
{"data": "Study 3", "SMILES": "Cn1cncc1[C@](O)(COc1ccc(C#N)cc1-c1ccc(OC(F)(F)F)cc1)c1ccc(C#N)cc1", "read-out": "cell-free assay", "method": "competition with immobilised ligand", "concentration": "1 µM"}
{"target": "Cyclin-G-associated kinase (GAK, Homo sapiens, UniProt O14976)", "remaining binding": "97%"}
{"target": "Dual specificity protein kinase CLK2 (CLK2, Homo sapiens, UniProt P49760)", "remaining binding": "87%"}
{"target": "Tyrosine-protein kinase ABL1, phosphorylated (ABL1, Homo sapiens, UniProt P00519, F317L)", "remaining binding": "100%"}
{"target": "Serine/threonine-protein kinase N2 (PKN2, Homo sapiens, UniProt Q16513)", "remaining binding": "100%"}
{"target": "Tyrosine-protein kinase JAK3, JH1 (JAK3, Homo sapiens, UniProt P52333)", "remaining binding": "72%"}
{"target": "Mitogen-activated protein kinase 7 (MAPK7, Homo sapiens, UniProt Q13164)", "remaining binding": "93%"}
{"target": "Ribosomal protein S6 kinase beta-1 (RPS6KB1, Homo sapiens, UniProt P23443)", "remaining binding": "96%"}
{"target": "Inhibitor of nuclear factor kappa-B kinase subunit epsilon (IKBKE, Homo sapiens, UniProt Q14164)", "remaining binding": "100%"}
{"target": "Ephrin type-B receptor 2 (EPHB2, Homo sapiens, UniProt P29323)", "remaining binding": "94%"}
{"target": "Bone morphogenetic protein receptor type-2 (BMPR2, Homo sapiens, UniProt Q13873)", "remaining binding": "89%"}
{"target": "Wee1-like protein kinase (WEE1, Homo sapiens, UniProt P30291)", "remaining binding": "100%"}
{"target": "Ribosomal protein S6 kinase alpha-3, C-terminal kinase domain (RPS6KA3, Homo sapiens, UniProt P51812)", "remaining binding": "87%"}
{"target": "Serine/threonine-protein kinase WNK3 (WNK3, Homo sapiens, UniProt Q9BYP7)", "remaining binding": "100%"}
{"target": "Mitogen-activated protein kinase kinase kinase 10 (MAP3K10, Homo sapiens, UniProt Q02779)", "remaining binding": "55%"}
{"target": "Mitogen-activated protein kinase kinase kinase 1 (MAP3K1, Homo sapiens, UniProt Q13233)", "remaining binding": "90%"}
{"target": "Serine/threonine-protein kinase TNNI3K (TNNI3K, Homo sapiens, UniProt Q59H18)", "remaining binding": "82%"}
{"target": "Serine/threonine-protein kinase ULK3 (ULK3, Homo sapiens, UniProt Q6PHR2)", "remaining binding": "88%"}
{"target": "Discoidin domain-containing receptor 2 (DDR2, Homo sapiens, UniProt Q16832)", "remaining binding": "100%"}
{"data": "Study 4", "Structure (SMILES)": "O=C1CCC(N2Cc3c(ccc4c3OCC43CCN(Cc4ccccc4)CC3)C2=O)C(=O)N1 (centres unmarked)", "route": "intravenous", "dose": "1 mg/kg"}
{"host": "ICR mouse, male", "sample": "plasma", "time": "0.5 h", "plasma concentration": "195 ng/mL and 177 ng/mL"}
{"host": "Sprague Dawley rat, male", "sample": "plasma", "time": "6 h", "plasma concentration": "28 ng/mL and 27.2 ng/mL"}
{"host": "ICR mouse, male", "time": "1 h", "plasma concentration": "124 ng/mL"}
{"host": "male Sprague Dawley rats", "sample": "plasma", "time": "0.25 h", "plasma concentration": "372 ng/mL"}
{"note": "A few entries again (study 3):"}
{"target": "Ephrin type-B receptor 2 (EPHB2, Homo sapiens, UniProt P29323)", "remaining binding": "94%"}
{"target": "Bone morphogenetic protein receptor type-2 (BMPR2, Homo sapiens, UniProt Q13873)", "remaining binding": "89%"}
{"target": "Wee1-like protein kinase (WEE1, Homo sapiens, UniProt P30291)", "remaining binding": "100%"}
{"target": "Ribosomal protein S6 kinase alpha-3, C-terminal kinase domain (RPS6KA3, Homo sapiens, UniProt P51812)", "remaining binding": "87%"}
{"target": "Serine/threonine-protein kinase WNK3 (WNK3, Homo sapiens, UniProt Q9BYP7)", "remaining binding": "100%"}
{"target": "Mitogen-activated protein kinase kinase kinase 10 (MAP3K10, Homo sapiens, UniProt Q02779)", "remaining binding": "55%"}
